Published values from different studies.
Numbered parts are unrelated; each lists some results of a single study. Changes are numbered by the printed parent chain.

Set 1
Target: POU domain, class 6, transcription factor 1, POU and homeodomain (POU6F1, Homo sapiens, UniProt Q14863, residues 311-611)
Technique: protein-binding microarray
Molecule type: hairpin DNA
Sample: in vitro
Concentration: not given
Setting: whole hairpin DNA, median over replicate spots
Reference: not given
Direction: higher = stronger binding
Endpoint: median fluorescence
Shared flanks, not repeated: GAGGCCA … TGGCCTCACACTCTT
Construct (chain): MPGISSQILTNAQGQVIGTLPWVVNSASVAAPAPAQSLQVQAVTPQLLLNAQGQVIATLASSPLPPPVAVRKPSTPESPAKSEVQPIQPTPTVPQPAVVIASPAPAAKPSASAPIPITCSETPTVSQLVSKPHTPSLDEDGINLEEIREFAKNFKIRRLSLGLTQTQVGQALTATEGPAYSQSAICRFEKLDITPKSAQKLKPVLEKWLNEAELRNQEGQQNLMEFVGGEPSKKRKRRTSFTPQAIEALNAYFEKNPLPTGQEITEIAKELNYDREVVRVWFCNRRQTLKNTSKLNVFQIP
Sequence = TAATCAGGTGCCTCCTGGCACCTGATTA (5mC at 12); value = 549 a.u.
Sequence = TAATTAGGGGCCTCCTGGCCCCTAATTA; value = 1460 a.u.
Sequence = TCATTAGGTGCCTCCTGGCACCTAATGA; value = 630 a.u.
Sequence = CGATTAGGTGCCTCCTGGCACCTAATCG (5mC at 8); value = 374 a.u.
Sequence = TAATGAGCGGCCTCCTGGCCGCTCATTA; value = 1860 a.u.
Sequence = TAACGAGGTGCCTCCTGGCACCTCGTTA (5mC at 11 31); value = 453 a.u.
Sequence = TAATCGGGTGCCTCCTGGCACCCGATTA; value = 426 a.u.
Sequence = TAATTCGGTGCCTCCTGGCACCGAATTA; value = 525 a.u.

Set 2
Target: vanadate, free oxyanion
Technique: microfluidic competitive inhibition
Sample: in vitro, cell-free expressed
Concentration: not given
Setting: derived from inhibition constants, unchanged parent 676 nM
Direction: lower = stronger binding
Endpoint: oxyanion analog dissociation constant
Starting sequence: PafA, mature enzyme, eGFP fusion (Elizabethkingia meningoseptica, UniProt Q9KJX5); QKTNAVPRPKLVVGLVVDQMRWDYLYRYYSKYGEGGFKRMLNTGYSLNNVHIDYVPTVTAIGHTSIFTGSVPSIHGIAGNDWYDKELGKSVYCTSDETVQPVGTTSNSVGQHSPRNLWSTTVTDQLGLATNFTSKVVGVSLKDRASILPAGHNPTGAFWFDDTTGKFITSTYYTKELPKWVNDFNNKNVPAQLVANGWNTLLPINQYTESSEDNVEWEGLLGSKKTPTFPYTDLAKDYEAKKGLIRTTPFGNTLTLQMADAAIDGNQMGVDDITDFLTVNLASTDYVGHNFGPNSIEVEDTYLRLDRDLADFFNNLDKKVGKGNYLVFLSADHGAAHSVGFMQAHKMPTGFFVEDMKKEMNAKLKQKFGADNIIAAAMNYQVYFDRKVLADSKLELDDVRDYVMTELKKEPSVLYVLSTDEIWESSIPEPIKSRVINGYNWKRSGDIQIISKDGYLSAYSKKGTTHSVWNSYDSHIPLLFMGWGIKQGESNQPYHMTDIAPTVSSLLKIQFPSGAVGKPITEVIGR
Substitution = P101G; value = 727 nM
Substitution = S295G; value = 966 nM
Substitution = I524G; value = 669 nM
Substitution = S90G; value = 595 nM

Set 3
Substitution: W41T
Target: ABI1, truncated, D143A, DHFR fusion (Arabidopsis thaliana)
Technique: DHFR PCA, deep sequencing
Sample: yeast
Setting: methotrexate growth selection, single substitutions
Reference: wild-type fitted maximum
Direction: higher = stronger binding
Endpoint: relative binding score
Starting sequence: PYL1, truncated, DHFR fusion (Arabidopsis thaliana); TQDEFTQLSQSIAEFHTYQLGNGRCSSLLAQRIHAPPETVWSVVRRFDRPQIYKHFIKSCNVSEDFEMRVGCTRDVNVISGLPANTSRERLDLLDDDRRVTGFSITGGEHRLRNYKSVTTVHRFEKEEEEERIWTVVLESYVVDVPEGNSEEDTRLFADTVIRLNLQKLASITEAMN
with = (+)-ABA 0.032 µM; value = 0.582%
with = (+)-ABA 710 µM; value = -3.98%
with = (+)-ABA 58 µM; value = -0.122%
with = (+)-ABA 0 µM; value = -3.68%
with = (+)-ABA 4.8 µM; value = 4.18%
with = (+)-ABA 17 µM; value = 5.26%

Other studies, line by line
SMILES = Cc1c(C(=O)O)cc(-c2ccc(C3CCNCC3)cc2)c2ccc(-c3ccc(C(F)(F)F)cc3)cc12; target = Cyclin-dependent kinase 2 homolog (CRK2, Plasmodium falciparum, UniProt P61075); effect on = cell-free assay; technique = competition with immobilised ligand; concentration = 1 µM; endpoint = remaining binding; value = 100%

For quick reference, copied from above (set 1):
Sequence = TAATGAGCGGCCTCCTGGCCGCTCATTA; value = 1860 a.u.
